# Experimental data of several laboratories.
# A part holds a random share of what one study measured. Substitutions count along the parent as printed.

# Series 1 — method: protein-binding microarray; form: double-stranded DNA, one strand shown; matrix: in vitro; tested at: 2200 nM top; setting: 60-bp whole probe; together with: salmon DNA 0.4 mg/ml; reference: random background probes; direction: higher = stronger binding; all sequences stand within: GCCTAGCAC … GTCTTGATTCGCTTGACGCTGCTG
# Target: Interferon regulatory factor 7, full length, phosphomimetic (IRF7, Homo sapiens, UniProt Q92985, residues 1-503, S471D/S472D/S475D/S476D/S477D/S483D/S484D/S487D)
# Construct (chain): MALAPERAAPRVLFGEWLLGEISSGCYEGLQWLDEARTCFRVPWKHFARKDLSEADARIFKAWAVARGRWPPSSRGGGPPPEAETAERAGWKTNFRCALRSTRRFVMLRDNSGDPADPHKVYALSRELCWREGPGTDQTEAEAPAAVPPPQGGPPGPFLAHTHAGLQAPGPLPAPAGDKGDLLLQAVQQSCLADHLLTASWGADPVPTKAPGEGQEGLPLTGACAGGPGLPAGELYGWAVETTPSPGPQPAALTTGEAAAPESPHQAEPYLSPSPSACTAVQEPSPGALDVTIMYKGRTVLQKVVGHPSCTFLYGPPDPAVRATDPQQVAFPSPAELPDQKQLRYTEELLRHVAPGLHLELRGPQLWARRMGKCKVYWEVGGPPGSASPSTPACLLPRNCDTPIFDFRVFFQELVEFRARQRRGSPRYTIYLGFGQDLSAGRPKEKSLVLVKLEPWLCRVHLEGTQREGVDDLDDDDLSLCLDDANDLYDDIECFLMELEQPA
Sequence,fitted relative affinity
TTAGGACGGGACACTGGGTTAGTGCTA,-0.87 z-score
GACGGACTGGACTATCGGGGCGTGCTA,-0.85 z-score
GACGATATGGGGTTTCGAGACGTGCTA,1.58 z-score
CCAGTTGAGCACAGGAAAGTGTGCTAG,0.289 z-score
GACGGACTGCTTTTCCTTACGTGCTAG,1.06 z-score
GACGGTATCGGGTATCGGAACGTGCTA,0.118 z-score
CTAGGTATCGGTATCGGTTAGTGCTAG,1.02 z-score
GACGGTATCCTTATCCTGAGGTGCTAG,0.3 z-score

# Series 2 — method: RNA Bind-n-Seq; form: RNA; matrix: in vitro; tested at: not given; reference: input RNA pool; direction: higher = stronger binding
# Target: RING finger protein unkempt homolog, zinc fingers 1-6, GST-SBP tag (UNK, Homo sapiens, UniProt Q9C0B0, residues 30-357)
# UniProt Q9C0B0, sequence (30-357, looked up): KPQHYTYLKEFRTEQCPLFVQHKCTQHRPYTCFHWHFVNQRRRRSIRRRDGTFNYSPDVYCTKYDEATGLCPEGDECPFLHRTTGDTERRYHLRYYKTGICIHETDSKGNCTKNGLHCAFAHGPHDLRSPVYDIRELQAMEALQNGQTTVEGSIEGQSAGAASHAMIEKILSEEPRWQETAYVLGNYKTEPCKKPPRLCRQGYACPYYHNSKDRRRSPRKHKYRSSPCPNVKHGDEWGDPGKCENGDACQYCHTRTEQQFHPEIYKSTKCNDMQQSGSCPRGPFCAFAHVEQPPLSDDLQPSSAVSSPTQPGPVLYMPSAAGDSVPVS
# Setting: RNA with constant flanks, human and mouse sites, ends assumed
Sequence,bound/input enrichment [ratio]
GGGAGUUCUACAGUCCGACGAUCAUUGUGGAUAAAGUUUCCAGUGUAUCCAGUUCAGCACUGGUAUCUUCCCUGCACAUGAUGAAGAUAAGCUAUGAUGUGGUUAAGCGCUGGAUCAAUGAAGCCCAAGAAGCUGCAUCAAGUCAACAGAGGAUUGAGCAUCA,0.115
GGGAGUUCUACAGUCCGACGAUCGCGCCGGCUCUUGUCCCACUAGGAGCAGCUCAGAGCCGCGGGGACAGGGCGAAGCGGCCUGCGCCCACGGAGCGCACGUCUCUGUUCUCAACGCAGCACCACCCUUGCCCCCCUCGGCUGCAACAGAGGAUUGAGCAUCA,0.297
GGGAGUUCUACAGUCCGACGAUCAACAUUUUUGUCAGGAUUAUUUCCCGUAAAAACGUAGUGAGCACUUUUCAUAUACUAAUUUAGUUGUACAUUUAACUUUGUAUAAUACAGAAAUCUAAAUAUAUUUAAUGAAUUCAAGCACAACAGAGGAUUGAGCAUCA,3.74
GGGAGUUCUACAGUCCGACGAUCCGUAGUCUCCUGCAGCGUCUGGGGUUUCCGUUGCAGUCCUCGGAACCAGGACCUCGGCGUGGCCUAGCGAGUUAUGGCGACGAAGGCCGUGUGCGUGCUGAAGGGCGACGGCCCAGUGCACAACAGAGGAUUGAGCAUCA,0.13
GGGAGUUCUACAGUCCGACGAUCCAGGAAGAUAUCGAUCCUCAGAAGGUUGCAUUUCUCCUCCACAAACAGUGGACUAUAUAUAGUUUAACUCCCUUGUAUAAAUUCUCCUAUUCUAAUCUCAAAGACUAUUCUAGACUUCUACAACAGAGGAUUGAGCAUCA,1.37
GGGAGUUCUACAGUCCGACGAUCUCGUUUGGGUCACCAGGCUUCCCAGUGAAUAACAGCAGCAGCAGUACUGUUCAGAACUUUAGUUUUAAAACAAGCCCUGGACUUGCCACUCCUCCUUCCGGAAGCACUUCAGUAUUUGGACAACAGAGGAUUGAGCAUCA,0.306
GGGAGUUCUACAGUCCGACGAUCUUUGUUACCUCCCCAAGCCCUGAUAACCUCCAUACUCUGUUUGAAUUUGUAUUUAAAGGAUUUGAUGCUCUGCAAUAUCAGGAACAUCUGGAUUAUGAGAUUAUCCAGUCUCUAAAUCCUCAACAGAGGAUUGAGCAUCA,0.642
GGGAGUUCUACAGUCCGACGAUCACAGUGUUUUUGACAUACCCUGACCAUCACUUUUCUGAAAUGGAAACUCUGGGCAUUUUUUUUUUAAAGCAAUCCUUGCUUUUUUGUGAGUUUGCAGACUUUCAGCAUCUUCCAAUUGCUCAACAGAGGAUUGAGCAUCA,0.273

# Other studies, line by line
# P1: PafA, mature enzyme, eGFP fusion (Elizabethkingia meningoseptica, UniProt Q9KJX5); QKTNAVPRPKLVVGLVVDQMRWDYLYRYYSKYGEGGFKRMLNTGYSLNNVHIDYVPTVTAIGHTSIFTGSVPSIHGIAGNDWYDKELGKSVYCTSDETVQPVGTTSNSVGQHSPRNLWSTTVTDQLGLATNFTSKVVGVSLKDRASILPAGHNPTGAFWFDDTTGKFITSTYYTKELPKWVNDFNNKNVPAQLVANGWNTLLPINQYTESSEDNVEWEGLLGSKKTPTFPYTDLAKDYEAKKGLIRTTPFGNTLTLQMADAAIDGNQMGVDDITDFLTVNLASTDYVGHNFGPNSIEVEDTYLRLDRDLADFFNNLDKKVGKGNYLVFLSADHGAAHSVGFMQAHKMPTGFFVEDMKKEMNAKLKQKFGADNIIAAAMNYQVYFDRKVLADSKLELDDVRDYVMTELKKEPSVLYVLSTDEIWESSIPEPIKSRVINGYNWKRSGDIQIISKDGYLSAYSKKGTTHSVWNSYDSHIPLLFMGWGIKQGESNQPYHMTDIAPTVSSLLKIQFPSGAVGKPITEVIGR
Molecule,tested on,test,test system,conditions,how to read,endpoint,result
"KIF5B (Homo sapiens, UniProt P33176)","KLC2 (Homo sapiens, UniProt Q9H0B6)",cross-linking MS,,hits only,,interaction screen,cross-linked
P1 N182V,"vanadate, free oxyanion",microfluidic competitive inhibition,"in vitro, cell-free expressed","not given, derived from inhibition constants, unchanged parent 676 nM",lower = stronger binding,oxyanion analog dissociation constant,648 nM

# For quick reference, copied from above (series 1):
Sequence,fitted relative affinity
GACGGTATCGGGTATCGGAACGTGCTA,0.118 z-score
GACGGACTGGACTATCGGGGCGTGCTA,-0.85 z-score
